Experimental data pooled from the literature.
Each numbered part is a random draw from the data of one study; scales do not carry over between parts. Positions count from the first letter of the parent shown.
Chain of UniProt Q8NEV4 (whole entry, looked up): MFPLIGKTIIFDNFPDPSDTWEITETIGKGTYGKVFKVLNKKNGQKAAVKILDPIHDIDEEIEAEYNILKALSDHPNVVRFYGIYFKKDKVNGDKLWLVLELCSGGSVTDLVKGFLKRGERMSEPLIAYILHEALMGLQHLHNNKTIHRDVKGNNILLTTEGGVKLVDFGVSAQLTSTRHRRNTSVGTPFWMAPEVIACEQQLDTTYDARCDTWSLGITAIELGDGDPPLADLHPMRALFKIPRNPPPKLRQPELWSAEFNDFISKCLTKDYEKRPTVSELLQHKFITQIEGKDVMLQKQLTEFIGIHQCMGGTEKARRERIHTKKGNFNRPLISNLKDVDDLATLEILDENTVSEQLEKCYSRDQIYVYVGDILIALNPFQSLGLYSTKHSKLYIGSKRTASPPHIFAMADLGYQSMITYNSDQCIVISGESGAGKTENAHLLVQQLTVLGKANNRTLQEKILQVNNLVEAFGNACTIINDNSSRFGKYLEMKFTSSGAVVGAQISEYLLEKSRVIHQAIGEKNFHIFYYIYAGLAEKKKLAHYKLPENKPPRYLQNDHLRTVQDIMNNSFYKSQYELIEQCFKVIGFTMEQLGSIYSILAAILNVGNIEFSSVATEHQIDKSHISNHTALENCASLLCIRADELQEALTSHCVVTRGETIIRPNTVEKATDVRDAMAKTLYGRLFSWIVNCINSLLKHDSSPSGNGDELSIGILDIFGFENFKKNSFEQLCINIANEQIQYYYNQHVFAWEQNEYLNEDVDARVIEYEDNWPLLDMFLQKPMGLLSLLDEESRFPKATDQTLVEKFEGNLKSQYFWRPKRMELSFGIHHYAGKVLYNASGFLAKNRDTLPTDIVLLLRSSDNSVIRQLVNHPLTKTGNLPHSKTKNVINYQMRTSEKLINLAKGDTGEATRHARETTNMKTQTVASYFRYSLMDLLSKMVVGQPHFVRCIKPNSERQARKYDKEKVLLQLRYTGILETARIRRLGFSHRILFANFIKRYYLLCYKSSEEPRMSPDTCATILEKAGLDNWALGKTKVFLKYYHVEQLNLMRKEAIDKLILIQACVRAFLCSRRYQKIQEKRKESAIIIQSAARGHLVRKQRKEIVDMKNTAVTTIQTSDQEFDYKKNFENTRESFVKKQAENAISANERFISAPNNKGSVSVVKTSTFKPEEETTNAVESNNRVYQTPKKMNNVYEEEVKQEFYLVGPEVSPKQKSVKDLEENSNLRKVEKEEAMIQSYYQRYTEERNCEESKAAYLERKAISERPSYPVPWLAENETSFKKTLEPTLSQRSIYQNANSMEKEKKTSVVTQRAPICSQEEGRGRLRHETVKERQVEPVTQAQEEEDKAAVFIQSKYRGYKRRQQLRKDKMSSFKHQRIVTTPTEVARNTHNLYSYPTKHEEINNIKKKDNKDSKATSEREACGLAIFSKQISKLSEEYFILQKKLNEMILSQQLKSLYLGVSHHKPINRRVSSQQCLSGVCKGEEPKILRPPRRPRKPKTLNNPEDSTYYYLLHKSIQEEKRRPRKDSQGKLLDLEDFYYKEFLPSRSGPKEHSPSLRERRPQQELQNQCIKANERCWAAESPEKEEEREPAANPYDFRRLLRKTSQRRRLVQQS
Chain of UniProt P51451 (whole entry, looked up): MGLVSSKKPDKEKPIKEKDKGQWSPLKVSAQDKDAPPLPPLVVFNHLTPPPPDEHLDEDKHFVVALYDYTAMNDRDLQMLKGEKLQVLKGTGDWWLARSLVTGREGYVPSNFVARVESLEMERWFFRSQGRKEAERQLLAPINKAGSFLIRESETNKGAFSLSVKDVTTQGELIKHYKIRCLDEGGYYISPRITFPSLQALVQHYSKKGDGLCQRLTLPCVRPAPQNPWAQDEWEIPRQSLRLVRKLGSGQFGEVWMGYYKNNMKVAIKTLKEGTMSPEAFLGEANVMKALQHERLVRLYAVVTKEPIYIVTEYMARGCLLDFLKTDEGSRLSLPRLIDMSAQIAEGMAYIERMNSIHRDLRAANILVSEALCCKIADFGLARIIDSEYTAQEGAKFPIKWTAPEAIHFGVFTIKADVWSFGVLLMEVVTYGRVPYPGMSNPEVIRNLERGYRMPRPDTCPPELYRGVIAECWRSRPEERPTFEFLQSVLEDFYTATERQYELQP
Chain of UniProt P29376 (whole entry, looked up): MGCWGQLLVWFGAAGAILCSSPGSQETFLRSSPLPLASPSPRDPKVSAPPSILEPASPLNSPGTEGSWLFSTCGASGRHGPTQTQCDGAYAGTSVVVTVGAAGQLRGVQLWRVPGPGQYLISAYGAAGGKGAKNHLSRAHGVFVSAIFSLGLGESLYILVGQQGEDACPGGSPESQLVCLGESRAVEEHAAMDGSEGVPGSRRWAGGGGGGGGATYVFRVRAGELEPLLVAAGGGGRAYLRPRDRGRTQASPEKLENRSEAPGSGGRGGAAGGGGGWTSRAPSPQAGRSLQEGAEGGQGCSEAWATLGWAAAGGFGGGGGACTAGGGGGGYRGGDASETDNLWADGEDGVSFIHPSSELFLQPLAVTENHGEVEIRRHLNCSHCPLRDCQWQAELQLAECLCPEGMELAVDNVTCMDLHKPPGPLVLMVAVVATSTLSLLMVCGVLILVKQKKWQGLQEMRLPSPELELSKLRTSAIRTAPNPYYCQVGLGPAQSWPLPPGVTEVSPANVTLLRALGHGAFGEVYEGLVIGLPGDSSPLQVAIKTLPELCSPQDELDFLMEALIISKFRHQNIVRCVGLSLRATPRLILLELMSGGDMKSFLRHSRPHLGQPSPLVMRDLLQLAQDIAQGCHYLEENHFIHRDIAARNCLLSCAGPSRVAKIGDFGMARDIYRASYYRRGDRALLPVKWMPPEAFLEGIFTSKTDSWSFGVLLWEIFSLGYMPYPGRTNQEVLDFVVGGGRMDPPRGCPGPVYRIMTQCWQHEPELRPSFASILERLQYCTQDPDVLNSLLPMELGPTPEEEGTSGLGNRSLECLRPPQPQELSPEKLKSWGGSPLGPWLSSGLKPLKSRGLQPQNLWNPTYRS
Chain of UniProt Q13043 (whole entry, looked up): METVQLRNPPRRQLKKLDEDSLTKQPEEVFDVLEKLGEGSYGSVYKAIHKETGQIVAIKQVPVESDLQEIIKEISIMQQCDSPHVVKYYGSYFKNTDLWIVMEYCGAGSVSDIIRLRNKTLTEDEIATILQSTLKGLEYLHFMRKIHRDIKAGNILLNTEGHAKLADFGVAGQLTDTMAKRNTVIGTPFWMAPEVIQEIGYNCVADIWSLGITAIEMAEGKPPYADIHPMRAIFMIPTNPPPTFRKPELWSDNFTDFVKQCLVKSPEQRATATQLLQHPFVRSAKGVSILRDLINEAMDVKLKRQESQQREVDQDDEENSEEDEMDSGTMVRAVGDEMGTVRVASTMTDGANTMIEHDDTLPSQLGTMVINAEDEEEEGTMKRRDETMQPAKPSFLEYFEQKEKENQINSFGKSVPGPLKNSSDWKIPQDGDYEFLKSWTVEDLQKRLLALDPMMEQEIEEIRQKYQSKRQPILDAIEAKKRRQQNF
Chain of UniProt Q9UQ88 (whole entry, looked up): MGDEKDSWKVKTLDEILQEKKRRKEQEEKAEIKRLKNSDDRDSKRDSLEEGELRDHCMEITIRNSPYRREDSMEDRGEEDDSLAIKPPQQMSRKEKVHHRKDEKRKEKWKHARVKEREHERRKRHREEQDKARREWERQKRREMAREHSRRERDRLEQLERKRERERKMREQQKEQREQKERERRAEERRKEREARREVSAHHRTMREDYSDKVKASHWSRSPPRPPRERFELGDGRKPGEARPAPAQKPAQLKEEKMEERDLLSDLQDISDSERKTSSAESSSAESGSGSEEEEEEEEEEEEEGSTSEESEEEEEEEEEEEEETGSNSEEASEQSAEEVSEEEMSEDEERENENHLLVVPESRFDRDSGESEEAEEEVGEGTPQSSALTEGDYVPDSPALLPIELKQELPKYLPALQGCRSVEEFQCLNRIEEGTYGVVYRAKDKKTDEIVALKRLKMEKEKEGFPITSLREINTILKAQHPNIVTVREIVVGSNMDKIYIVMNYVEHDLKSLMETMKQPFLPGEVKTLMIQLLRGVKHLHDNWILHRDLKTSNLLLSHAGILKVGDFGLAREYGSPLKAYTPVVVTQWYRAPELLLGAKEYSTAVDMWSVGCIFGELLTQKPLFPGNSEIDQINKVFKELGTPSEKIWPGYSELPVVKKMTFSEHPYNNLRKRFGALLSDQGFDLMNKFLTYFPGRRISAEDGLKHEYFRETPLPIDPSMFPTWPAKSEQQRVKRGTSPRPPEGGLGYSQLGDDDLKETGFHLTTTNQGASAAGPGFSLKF
Chain of UniProt P49759 (whole entry, looked up): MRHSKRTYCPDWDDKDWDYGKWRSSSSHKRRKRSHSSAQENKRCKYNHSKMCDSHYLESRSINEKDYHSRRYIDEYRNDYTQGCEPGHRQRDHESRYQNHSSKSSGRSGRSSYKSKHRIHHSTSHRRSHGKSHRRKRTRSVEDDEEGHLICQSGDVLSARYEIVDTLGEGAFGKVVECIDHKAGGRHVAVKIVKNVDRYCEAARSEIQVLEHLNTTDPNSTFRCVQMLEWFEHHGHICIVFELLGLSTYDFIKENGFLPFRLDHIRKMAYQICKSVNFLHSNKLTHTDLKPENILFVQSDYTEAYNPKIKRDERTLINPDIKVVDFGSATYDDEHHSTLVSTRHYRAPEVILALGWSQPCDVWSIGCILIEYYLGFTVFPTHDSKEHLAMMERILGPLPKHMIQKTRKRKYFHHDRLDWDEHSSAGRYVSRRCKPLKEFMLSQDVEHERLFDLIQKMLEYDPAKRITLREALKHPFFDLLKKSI

Set 1 — target: CCNA1, cyclin fold, Cln2 fusion (human); technique: yeast growth competition, sequencing; medium: yeast; setting: weak parent motif; relative to: not given; reading: higher = stronger binding
Starting sequence: PKMYT1 docking peptide (human); SFEPRNLLSLFED
Substitution | normalised enrichment score
F11V | 0.141
L10T | 0.348
F2N | 0.0811
L7V | 0.14
L10P | 0.216
L8Y | 0.445
S9F | 0.0814
F2C | 0.0405

Set 2 — technique: competition with immobilised ligand; tested at: 1 µM
SMILES: Cc1nc(N2CC[C@@H](O)C2)ncc1-c1cc(C(F)(F)F)cc2[nH]ncc12
target | assay | remaining binding [%]
cAMP-dependent protein kinase catalytic subunit PRKX (PRKX, Homo sapiens, UniProt P51817) | cell-free assay | 97
Dual specificity protein kinase CLK1 (CLK1, Homo sapiens, UniProt P49759) | binding | 87
Receptor-type tyrosine-protein kinase FLT3 (FLT3, Homo sapiens, UniProt P36888, D835Y) | binding | 80
Receptor-type tyrosine-protein kinase FLT3 (FLT3, Homo sapiens, UniProt P36888, K663Q) | binding | 89
Ribosomal protein S6 kinase beta-1 (RPS6KB1, Homo sapiens, UniProt P23443) | binding | 90
Serine/threonine-protein kinase Nek11 (NEK11, Homo sapiens, UniProt Q8NG66) | binding | 87
Myosin-IIIa (MYO3A, Homo sapiens, UniProt Q8NEV4) | binding | 100
Receptor tyrosine-protein kinase erbB-2 (ERBB2, Homo sapiens, UniProt P04626) | binding | 87
Phosphatidylinositol 3-kinase catalytic subunit type 3 (PIK3C3, Homo sapiens, UniProt Q8NEB9) | cell-free assay | 63
Cyclin-dependent kinase 11A (CDK11A, Homo sapiens, UniProt Q9UQ88) | binding | 100
Leukocyte tyrosine kinase receptor (LTK, Homo sapiens, UniProt P29376) | cell-free assay | 87
Tyrosine-protein kinase Blk (BLK, Homo sapiens, UniProt P51451) | cell-free assay | 100
Microtubule-associated serine/threonine-protein kinase 1 (MAST1, Homo sapiens, UniProt Q9Y2H9) | binding | 100
Serine/threonine-protein kinase 4 (STK4, Homo sapiens, UniProt Q13043) | binding | 83

Set 3 — target: CREB3L1, bZIP domain (human); technique: DHFR protein complementation; medium: yeast; relative to: wild-type JUN-FOS pair; reading: higher = stronger binding
Setting: single substitutions, most at no-binding floor
Starting sequence: JUN, bZIP domain (human); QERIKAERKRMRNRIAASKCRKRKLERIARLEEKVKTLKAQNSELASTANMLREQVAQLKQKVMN; partner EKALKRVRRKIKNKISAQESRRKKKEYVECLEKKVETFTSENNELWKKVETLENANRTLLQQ
Substitution | binding fitness [natural log]
A57Y | -1.56
A46C | -1.46
M51I | -1.49
A49S | -1.46
L31G | -1.48
K36H | -1.54
E54A | -1.37
T48M | -1.33

Mixed results — species: human; medium: microsomes or S9; tested at: 2 µM; time: 0.5 h
SMILES | remaining compound [%]
O=C1CCC2(C(=O)NCCCn3cccn3)CCCC=C2N1C1CCCC1 (centres unmarked) | 51.2
Cc1cc(OC2CN(S(=O)(=O)N(C)C)C2)cc(=O)n1C | 99.5

Repeated from above (set 2):
target | assay | remaining binding [%]
Phosphatidylinositol 3-kinase catalytic subunit type 3 (PIK3C3, Homo sapiens, UniProt Q8NEB9) | cell-free assay | 63
Leukocyte tyrosine kinase receptor (LTK, Homo sapiens, UniProt P29376) | cell-free assay | 87
